Published values collected from several papers.
Numbered parts are unrelated; each lists some results of a single study.

Series 1
Target: Interferon regulatory factor 5, full length, phosphomimetic (IRF5, Homo sapiens, UniProt Q13568-2, residues 1-514, S451D/S453D/S456D/S462D)
Method: protein-binding microarray
Form: double-stranded DNA, one strand shown
Sample: in vitro
Tested at: 940 nM top
Setting: 60-bp whole probe
Together with: salmon DNA 0.4 mg/ml
Reference: random background probes
Reading: higher = stronger binding
All sequences stand within: GCCTAGCAC … GTCTTGATTCGCTTGACGCTGCTG
`TCACACCTCTAGACTCTAACTGTGCTA` — result for “fitted relative affinity”: 0.607 z-score.
`TTAGGTATCCTTTTCCTTCAGTGCTAG` — result for “fitted relative affinity”: 0.732 z-score.
`TTAGGTTTCCTAATCCTTTAGTGCTAG` — result for “fitted relative affinity”: 0.859 z-score.
Under “fitted relative affinity”, `TCATACCTGTATATCTTACTGTGCTAG` is recorded as 0.274 z-score.
Under “fitted relative affinity”, `TTAGGTTTCCTCTTCCTTTAGTGCTAG` is recorded as 2.16 z-score.
Under “fitted relative affinity”, `GGAAGCAGTGAGAAGGTGGCGTGCTAG` is recorded as -0.492 z-score.
`GACGGTATCGACTTTCGGGAGGTGCTA` — result for “fitted relative affinity”: 4.46 z-score.

Series 2
Target: Ras GTPase-activating protein-binding protein 1, C-terminal RGG region (G3BP1, Homo sapiens, UniProt Q13283)
UniProt Q13283, sequence (whole entry, looked up): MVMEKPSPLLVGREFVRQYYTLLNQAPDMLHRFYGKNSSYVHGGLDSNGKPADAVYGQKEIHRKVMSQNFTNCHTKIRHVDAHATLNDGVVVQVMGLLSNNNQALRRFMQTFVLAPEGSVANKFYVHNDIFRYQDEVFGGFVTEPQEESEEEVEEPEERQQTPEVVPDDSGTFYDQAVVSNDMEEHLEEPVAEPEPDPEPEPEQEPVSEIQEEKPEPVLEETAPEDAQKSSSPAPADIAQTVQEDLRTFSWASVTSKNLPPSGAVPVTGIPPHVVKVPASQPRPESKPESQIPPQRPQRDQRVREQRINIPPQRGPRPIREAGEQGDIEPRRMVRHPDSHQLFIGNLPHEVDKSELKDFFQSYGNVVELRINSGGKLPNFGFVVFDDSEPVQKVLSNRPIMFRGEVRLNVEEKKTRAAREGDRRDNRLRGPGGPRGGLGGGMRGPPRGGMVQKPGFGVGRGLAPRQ
Method: RNA Bind-n-Seq
Form: RNA
Sample: in vitro
Tested at: 1 µM
Setting: whole 134-nt RNA, ends assumed
Together with: 150 mM KCl
Reference: input library
Reading: higher = stronger binding
For `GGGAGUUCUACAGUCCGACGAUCGUCCUGUGCUACACAUCGUAUGUACCGAAUCGGGGAAAAGGGGAAAAGGGGAAAAGGGAAAGUAUUAUGUUACGCCGUUCGGAUCUGCACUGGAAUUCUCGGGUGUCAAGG`, the log2 enrichment was 0.563.
The log2 enrichment of `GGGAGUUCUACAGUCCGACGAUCUUCCUCAAGUCCUGUGCUACACAUCGUAUGUACCGAAUCGGCGGCGGGCGGAAAGUAUUAUGUUACGCCGUUCGGAUCUGCACUUCCAGCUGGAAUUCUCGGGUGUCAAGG` is reported as -0.719.
For `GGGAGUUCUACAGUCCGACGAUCUGGGAUGUGGAUUUUGUUUAUUUUUUUAGCUCAUUUCCAGGGGUGGGAAUUUUUUUUUAAUAUGUGUCAUGAAUAAAGUUGUUUUUGAAAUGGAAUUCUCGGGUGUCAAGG`, the log2 enrichment was 4.05.
With `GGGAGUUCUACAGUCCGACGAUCCCUGUGCUACACAUCGUAUGUACCGAAUCGGGGUUUUUGGGGUUUGGGGAAAAAAAGGGGAAAGUAUUAUGUUACGCCGUUCGGAUCUGCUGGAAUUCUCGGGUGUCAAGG` the log2 enrichment was 0.428.
`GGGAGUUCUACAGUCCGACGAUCCAAGUCCUGUGCUACACAUCGUAUGUACCGAAUCGGGGUUUGGGGAGGGGUGGGGAAAGUAUUAUGUUACGCCGUUCGGAUCUGCACUUCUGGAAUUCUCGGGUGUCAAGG` has a log2 enrichment of 2.67.
`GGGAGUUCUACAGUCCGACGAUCUGGCCCUGGUGGCAUGCGGGGAGGAAGAGGUGGCCUUAUGGAUCGUGGUGGUCCCGGUGGAAUGUUCAGAGGUGGCCGUGGUGGAGACAGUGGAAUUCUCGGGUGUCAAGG` has a log2 enrichment of 2.47.
For `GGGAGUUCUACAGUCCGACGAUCACCAUGCAGGUGGGCUUCUUUGGGAAGUGGGGCAAGGGGGGGAUAGGGAGGGGGGUAACACUUUGGGAACAGGUGGUCCCAGGUCGUUUCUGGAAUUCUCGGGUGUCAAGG`, the log2 enrichment was -1.36.
With `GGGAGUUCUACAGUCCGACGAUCCUGUGCUACACAUCGUAUGUACCGAAUCGGGGUUUUUUUGGGUUUUUUUGGGUUUUUUUGGGAAAGUAUUAUGUUACGCCGUUCGGAUCUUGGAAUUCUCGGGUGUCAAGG` the log2 enrichment was -1.3.
The log2 enrichment of `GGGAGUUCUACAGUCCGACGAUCUGUGGGUCCUCCUGCACCUGGUGCUGGCCUUCCUGUCCCUGCGCUCUUUGACAGCCUCCUGACCUGUAGGACGAGGGAUUCCUUGUUCUUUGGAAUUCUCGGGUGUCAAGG` is reported as -0.352.
For `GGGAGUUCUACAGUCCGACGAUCUUCUCUCAUUUCUUCUGAAAUACAGGGCAAAUUGGAUCAAGGCAGUUCAGAUGUGUAGCAAACCCAGAGAAUUUGCAUUGGCUUUAGCCAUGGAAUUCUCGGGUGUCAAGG`, the log2 enrichment was 2.26.

Series 3
Target: Max-binding protein MNT, bHLH-zipper, MAX partner unstated (MNT, Homo sapiens, UniProt Q99583, residues 220-300)
Method: protein-binding microarray
Form: double-stranded DNA, one strand shown
Sample: in vitro
Tested at: not given
Setting: k-mer, scored over probes, only values ≥0.25
Reading: higher = stronger binding
Residues (chain): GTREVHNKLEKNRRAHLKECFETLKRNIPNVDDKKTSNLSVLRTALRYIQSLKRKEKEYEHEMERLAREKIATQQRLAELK
The E-score of `ACCATGCA` is reported as 0.35.
For `ACACGCGT`, the E-score was 0.46.
For `CGCGTGAC`, the E-score was 0.447.
With `ATGCCCCG` the E-score was 0.261.
For `ACGGGGGG`, the E-score was 0.263.
`AACCACAT` gave an E-score of 0.275.

Other studies, line by line
`PhoQ, residues 284 288 289 292 302 303 TNSAEL` gave a fold induction of 1.78 (PhoP, residues 12 14 15 18 19 LQHIR (Escherichia coli, UniProt P23836); Sort-seq, item: YFP reporter; E. coli; PhoQ-PhoP variant library, together with: 10 µM Mg2+; reference: high Mg2+ state, higher = stronger signaling).

For quick reference, copied from above (series 1):
Under “fitted relative affinity”, `TCATACCTGTATATCTTACTGTGCTAG` is recorded as 0.274 z-score.
Under “fitted relative affinity”, `TTAGGTTTCCTCTTCCTTTAGTGCTAG` is recorded as 2.16 z-score.
